{"data": "Published values gathered from unrelated publications", "note": "Each numbered part is a random draw from the data of one study; scales do not carry over between parts. Values joined by “and” are separate records of one study, mostly repeats; a detail may differ.", "sequence of UniProt O95747 (whole entry, looked up)": "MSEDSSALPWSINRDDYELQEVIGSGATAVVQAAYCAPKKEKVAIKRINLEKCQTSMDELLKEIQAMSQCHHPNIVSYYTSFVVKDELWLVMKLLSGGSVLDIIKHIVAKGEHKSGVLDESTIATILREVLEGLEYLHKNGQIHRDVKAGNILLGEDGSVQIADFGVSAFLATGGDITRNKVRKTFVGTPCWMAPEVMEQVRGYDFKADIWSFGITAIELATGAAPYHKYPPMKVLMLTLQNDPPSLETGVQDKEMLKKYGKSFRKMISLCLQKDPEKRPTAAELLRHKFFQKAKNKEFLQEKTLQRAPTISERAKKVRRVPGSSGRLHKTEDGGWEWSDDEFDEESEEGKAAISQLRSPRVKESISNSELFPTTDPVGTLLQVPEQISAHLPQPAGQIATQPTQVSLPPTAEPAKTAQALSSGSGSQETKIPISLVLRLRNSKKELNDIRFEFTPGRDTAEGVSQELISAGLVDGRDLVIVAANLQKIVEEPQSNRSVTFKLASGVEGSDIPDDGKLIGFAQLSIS", "sequence of UniProt P54646 (whole entry, looked up)": "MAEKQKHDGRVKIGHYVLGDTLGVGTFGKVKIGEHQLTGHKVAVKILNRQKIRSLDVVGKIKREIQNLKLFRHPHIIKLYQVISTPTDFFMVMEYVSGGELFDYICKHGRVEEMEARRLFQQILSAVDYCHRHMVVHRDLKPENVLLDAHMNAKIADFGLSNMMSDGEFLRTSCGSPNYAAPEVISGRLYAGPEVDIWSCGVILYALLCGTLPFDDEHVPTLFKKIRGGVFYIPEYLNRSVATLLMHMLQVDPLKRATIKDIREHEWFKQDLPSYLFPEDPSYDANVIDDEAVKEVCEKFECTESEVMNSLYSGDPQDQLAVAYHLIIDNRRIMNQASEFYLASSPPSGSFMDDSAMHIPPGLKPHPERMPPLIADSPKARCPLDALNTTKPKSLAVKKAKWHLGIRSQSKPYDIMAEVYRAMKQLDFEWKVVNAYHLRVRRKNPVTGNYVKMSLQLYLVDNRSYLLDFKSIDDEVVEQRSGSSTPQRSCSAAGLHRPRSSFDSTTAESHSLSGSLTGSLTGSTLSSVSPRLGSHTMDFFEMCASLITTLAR", "sequence of UniProt P04629 (whole entry, looked up)": "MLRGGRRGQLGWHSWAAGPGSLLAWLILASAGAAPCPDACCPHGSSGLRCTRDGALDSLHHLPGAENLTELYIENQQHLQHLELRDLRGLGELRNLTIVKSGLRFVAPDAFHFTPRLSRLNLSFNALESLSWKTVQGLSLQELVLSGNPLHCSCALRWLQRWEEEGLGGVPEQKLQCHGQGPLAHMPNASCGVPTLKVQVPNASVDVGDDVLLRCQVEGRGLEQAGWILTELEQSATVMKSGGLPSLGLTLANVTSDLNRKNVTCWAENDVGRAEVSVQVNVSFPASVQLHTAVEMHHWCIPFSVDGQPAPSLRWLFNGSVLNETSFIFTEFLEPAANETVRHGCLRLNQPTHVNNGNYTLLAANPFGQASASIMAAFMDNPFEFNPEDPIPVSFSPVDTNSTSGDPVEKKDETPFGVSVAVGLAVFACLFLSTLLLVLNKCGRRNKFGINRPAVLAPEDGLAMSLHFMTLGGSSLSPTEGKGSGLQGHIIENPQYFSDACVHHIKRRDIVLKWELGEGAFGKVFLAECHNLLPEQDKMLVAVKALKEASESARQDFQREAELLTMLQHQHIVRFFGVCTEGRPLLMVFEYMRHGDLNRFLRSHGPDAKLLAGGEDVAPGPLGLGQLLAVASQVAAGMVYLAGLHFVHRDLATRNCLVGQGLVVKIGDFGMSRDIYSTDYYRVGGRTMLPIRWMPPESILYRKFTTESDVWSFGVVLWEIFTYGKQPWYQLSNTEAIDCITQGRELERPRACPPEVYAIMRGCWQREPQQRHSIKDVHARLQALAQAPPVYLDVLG", "sequence of UniProt Q9P289 (whole entry, looked up)": "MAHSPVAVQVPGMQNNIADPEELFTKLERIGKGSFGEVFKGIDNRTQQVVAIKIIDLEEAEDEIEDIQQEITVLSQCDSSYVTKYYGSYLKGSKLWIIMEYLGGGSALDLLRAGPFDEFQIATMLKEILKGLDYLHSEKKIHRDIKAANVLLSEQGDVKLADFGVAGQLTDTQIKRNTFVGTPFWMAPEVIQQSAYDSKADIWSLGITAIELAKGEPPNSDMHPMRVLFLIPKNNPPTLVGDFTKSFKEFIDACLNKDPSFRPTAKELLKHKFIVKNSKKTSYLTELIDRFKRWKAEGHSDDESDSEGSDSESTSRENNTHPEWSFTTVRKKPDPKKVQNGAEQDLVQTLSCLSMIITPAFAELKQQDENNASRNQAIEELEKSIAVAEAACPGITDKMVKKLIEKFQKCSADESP", "sequence of UniProt P45984 (whole entry, looked up)": "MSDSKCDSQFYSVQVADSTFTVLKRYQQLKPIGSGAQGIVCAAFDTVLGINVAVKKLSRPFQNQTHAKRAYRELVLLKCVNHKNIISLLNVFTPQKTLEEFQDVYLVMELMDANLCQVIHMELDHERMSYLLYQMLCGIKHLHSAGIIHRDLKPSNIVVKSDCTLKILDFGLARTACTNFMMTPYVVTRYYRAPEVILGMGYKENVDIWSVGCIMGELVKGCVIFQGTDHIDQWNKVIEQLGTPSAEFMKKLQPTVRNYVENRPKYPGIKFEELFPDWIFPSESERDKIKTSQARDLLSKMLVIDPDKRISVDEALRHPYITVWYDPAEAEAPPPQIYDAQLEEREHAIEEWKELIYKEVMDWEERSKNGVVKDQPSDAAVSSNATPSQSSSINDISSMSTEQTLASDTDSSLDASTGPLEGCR"}
{"data": "Series 1", "Compound": "O=C1CCC(N2Cc3cc(C4CCN(Cc5ccccc5)CC4)ccc3C2=O)C(=O)N1 (stereo not drawn)", "mode": "degrader", "technique": "HiBiT", "CSNK1A1": "Casein kinase I isoform alpha (CSNK1A1, Homo sapiens, UniProt P48729)", "DNA-binding protein Ikaros": "DNA-binding protein Ikaros (Homo sapiens, UniProt Q13422)", "Zinc finger protein Aiolos": "Zinc finger protein Aiolos (Homo sapiens, UniProt Q9UKT9)", "sequence of UniProt Q13422 (whole entry, looked up)": "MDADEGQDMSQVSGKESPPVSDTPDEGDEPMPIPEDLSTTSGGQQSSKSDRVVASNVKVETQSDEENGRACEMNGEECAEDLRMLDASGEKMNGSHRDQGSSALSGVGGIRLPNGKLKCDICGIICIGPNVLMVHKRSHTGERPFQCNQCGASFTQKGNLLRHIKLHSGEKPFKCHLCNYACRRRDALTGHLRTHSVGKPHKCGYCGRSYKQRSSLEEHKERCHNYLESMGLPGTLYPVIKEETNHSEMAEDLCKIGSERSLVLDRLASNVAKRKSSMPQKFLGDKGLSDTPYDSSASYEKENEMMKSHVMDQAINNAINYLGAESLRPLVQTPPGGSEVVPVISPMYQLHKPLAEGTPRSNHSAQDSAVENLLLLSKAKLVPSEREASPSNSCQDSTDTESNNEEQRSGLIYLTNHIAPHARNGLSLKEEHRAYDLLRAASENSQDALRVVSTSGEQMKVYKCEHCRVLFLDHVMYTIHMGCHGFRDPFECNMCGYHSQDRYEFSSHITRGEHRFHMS", "sequence of UniProt Q9UKT9 (whole entry, looked up)": "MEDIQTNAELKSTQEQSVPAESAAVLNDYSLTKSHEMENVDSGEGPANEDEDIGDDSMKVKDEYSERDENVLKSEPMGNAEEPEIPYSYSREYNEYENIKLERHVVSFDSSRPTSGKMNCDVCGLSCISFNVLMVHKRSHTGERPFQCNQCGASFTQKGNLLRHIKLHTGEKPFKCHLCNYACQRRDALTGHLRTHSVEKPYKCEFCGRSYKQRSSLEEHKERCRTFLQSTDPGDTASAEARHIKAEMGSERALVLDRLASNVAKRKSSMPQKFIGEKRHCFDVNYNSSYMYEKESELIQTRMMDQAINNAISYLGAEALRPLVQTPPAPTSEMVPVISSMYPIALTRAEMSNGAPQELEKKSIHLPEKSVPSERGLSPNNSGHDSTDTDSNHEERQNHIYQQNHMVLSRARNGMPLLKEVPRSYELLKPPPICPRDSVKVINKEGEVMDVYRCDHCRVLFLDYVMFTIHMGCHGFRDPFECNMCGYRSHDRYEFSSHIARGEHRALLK", "sequence of UniProt P48729 (whole entry, looked up)": "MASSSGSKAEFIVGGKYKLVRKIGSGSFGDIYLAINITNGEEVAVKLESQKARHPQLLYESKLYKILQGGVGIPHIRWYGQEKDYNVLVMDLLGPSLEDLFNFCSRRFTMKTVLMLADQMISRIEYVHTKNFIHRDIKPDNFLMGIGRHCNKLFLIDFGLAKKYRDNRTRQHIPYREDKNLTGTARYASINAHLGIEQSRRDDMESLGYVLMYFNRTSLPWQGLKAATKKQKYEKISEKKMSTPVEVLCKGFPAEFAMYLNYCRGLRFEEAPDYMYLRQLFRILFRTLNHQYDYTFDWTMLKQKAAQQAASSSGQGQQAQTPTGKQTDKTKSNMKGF"}
{"target": "CSNK1A1", "system": "HEK293 HiBiT-CK1α", "setting": "0.5081 nM", "remaining protein": "102% and 90.8%"}
{"target": "DNA-binding protein Ikaros", "system": "HEK293", "setting": "0.004572 µM", "remaining protein": "90.8% and 93.8%"}
{"target": "Zinc finger protein Aiolos", "system": "HEK293", "setting": "10 µM", "remaining protein": "79.8% and 83.8%"}
{"target": "Zinc finger protein Eos (IKZF4, Homo sapiens, UniProt Q9H2S9)", "system": "HEK293", "setting": "0.3333 µM, 6 h", "remaining protein": "111%"}
{"target": "Zinc finger protein Aiolos", "system": "HEK293", "setting": "0.04115 µM, 6 h", "remaining protein": "94.5%"}
{"target": "Zinc finger protein Aiolos", "system": "HEK293", "setting": "0.004572 µM", "remaining protein": "90.4% and 83.8%"}
{"target": "CSNK1A1", "system": "HEK293", "setting": "0.01372 µM, 6 h", "remaining protein": "90.7%"}
{"target": "Zinc finger protein Aiolos", "system": "HEK293", "setting": "0.01372 µM", "remaining protein": "85.5% and 92.5%"}
{"target": "DNA-binding protein Ikaros", "system": "HEK293", "setting": "1.111 µM, 6 h", "remaining protein": "100%"}
{"data": "Series 2", "SMILES": "CN1CCN(c2cnc3c(C4CCN(C(=O)c5ccc(OC(F)(F)F)cc5N)CC4)ncnc3c2)CC1", "read-out": "cell-free assay", "technique": "competition with immobilised ligand", "concentration": "1 µM"}
{"target": "OXSR1 (Homo sapiens, UniProt O95747)", "remaining binding [%]": 100}
{"target": "Ribosomal protein S6 kinase alpha-1, N-terminal kinase domain (RPS6KA1, Homo sapiens, UniProt Q15418)", "remaining binding [%]": 100}
{"target": "Tyrosine-protein kinase ABL1, phosphorylated (ABL1, Homo sapiens, UniProt P00519, T315I)", "remaining binding [%]": 100}
{"target": "IRAK1 (Homo sapiens, UniProt P51617)", "remaining binding [%]": 100}
{"target": "MAP3K2 (Homo sapiens, UniProt Q9Y2U5)", "remaining binding [%]": 100}
{"target": "GRK3 (Homo sapiens, UniProt P35626)", "remaining binding [%]": 89}
{"target": "MAP4K4 (Homo sapiens, UniProt O95819)", "remaining binding [%]": 100}
{"target": "Tyrosine-protein kinase JAK2, JH1 (JAK2, Homo sapiens, UniProt O60674)", "remaining binding [%]": 83}
{"target": "HUNK (Homo sapiens, UniProt P57058)", "remaining binding [%]": 95}
{"target": "STK26 (Homo sapiens, UniProt Q9P289)", "remaining binding [%]": 98}
{"target": "AXL (Homo sapiens, UniProt P30530)", "remaining binding [%]": 78}
{"target": "EPHB4 (Homo sapiens, UniProt P54760)", "remaining binding [%]": 100}
{"target": "PAK6 (Homo sapiens, UniProt Q9NQU5)", "remaining binding [%]": 100}
{"target": "PDPK1 (Homo sapiens, UniProt O15530)", "remaining binding [%]": 85}
{"target": "EPHA6 (Homo sapiens, UniProt Q9UF33)", "remaining binding [%]": 100}
{"target": "PIM3 (Homo sapiens, UniProt Q86V86)", "remaining binding [%]": 100}
{"target": "MAP3K9 (Homo sapiens, UniProt P80192)", "remaining binding [%]": 100}
{"target": "Ribosomal protein S6 kinase alpha-5, N-terminal kinase domain (RPS6KA5, Homo sapiens, UniProt O75582)", "remaining binding [%]": 100}
{"target": "PRKAA2 (Homo sapiens, UniProt P54646)", "remaining binding [%]": 100}
{"target": "MAPK9 (Homo sapiens, UniProt P45984)", "remaining binding [%]": 100}
{"target": "WNK2 (Homo sapiens, UniProt Q9Y3S1)", "remaining binding [%]": 100}
{"target": "TIE1 (Homo sapiens, UniProt P35590)", "remaining binding [%]": 80}
{"target": "SIK3 (Homo sapiens, UniProt Q9Y2K2)", "remaining binding [%]": 100}
{"target": "PAK3 (Homo sapiens, UniProt O75914)", "remaining binding [%]": 88}
{"target": "NTRK1 (Homo sapiens, UniProt P04629)", "remaining binding [%]": 100}
{"data": "Series 3", "target": "Calcium/calmodulin-dependent protein kinase type II subunit alpha (CAMK2A, Homo sapiens, UniProt Q9UQM7)", "read-out": "enzyme activity", "mode": "inhibitor", "concentration": "10 µM", "sequence of UniProt Q9UQM7 (whole entry, looked up)": "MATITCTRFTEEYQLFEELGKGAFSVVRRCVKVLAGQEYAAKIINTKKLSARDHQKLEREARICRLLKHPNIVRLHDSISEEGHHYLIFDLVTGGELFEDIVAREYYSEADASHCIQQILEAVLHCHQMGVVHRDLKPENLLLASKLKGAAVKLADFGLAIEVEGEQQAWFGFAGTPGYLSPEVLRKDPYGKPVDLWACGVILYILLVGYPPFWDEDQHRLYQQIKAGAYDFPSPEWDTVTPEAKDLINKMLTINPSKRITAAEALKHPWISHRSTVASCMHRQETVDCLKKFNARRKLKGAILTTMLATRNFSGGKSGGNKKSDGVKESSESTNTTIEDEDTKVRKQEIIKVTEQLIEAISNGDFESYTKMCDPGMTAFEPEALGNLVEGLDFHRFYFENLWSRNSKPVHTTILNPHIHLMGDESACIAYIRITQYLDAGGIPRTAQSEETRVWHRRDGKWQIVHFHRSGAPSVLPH"}
{"Compound": "OCCc1c[nH]c2ccccc12", "inhibition [%]": -11}
{"Compound": "Nc1[nH]c(=O)nc2c1ncn2[C@@H]1O[C@H](CO)[C@@H](O)[C@H]1O", "inhibition [%]": -12}
{"Compound": "O=C(/C=C/c1ccc(O)c(O)c1)OC1[C@H](O)CC(OC(=O)/C=C/c2ccc(O)c(O)c2)(C(=O)O)C[C@H]1O (stereo partly drawn)", "inhibition [%]": -3}
{"Compound": "CC(O)(CCO)CC(=O)O (stereo not drawn)", "inhibition [%]": 34}
{"Compound": "CCCCCCCCOC(C)=O", "inhibition [%]": -23}
{"Compound": "COc1cc(O)ccc1/C=C/C(=O)c1ccc(O)cc1", "inhibition [%]": 14}
{"Compound": "CCOC(=O)C1=C[C@@H](OC(CC)CC)[C@H](NC(C)=O)[C@@H](N)C1", "inhibition [%]": -7}
{"Compound": "CN(C)CC[C@@H](c1ccc(Cl)cc1)c1ccccn1", "inhibition [%]": -7}
{"Compound": "COc1ccc(-c2cc(=O)c3c(O)cc(O[C@@H]4O[C@H](C(=O)O)[C@@H](O)[C@H](O)[C@H]4O)cc3o2)cc1O", "inhibition [%]": -5}
{"data": "Series 4", "technique": "logD(dd/w) and ALogP", "notes": "JT method"}
{"Compound": "CC(C)C[C@@H]1NC(=O)[C@H](C)NC(=O)[C@H](Cc2cscn2)NC(=O)[C@H](CC(C)C)NC(=O)[C@@H](CCC(=O)N2CCCC2)NC(=O)[C@H](CC(C)C)NC(=O)[C@@H](CC(C)C)NC1=O", "lipophilic permeability efficiency": 2.23}
{"Compound": "CC(C)C[C@@H]1NC(=O)[C@H](C(C)C)NC(=O)[C@H](CC(C)C)NC(=O)[C@@H](CC(C)C)NC(=O)[C@H](CC(C)C)NC(=O)[C@H](C(C)C)NC(=O)[C@H](Cc2cscn2)NC1=O", "lipophilic permeability efficiency": 2.46}
{"Compound": "CC(C)C[C@@H]1NC(=O)[C@H](CCC(=O)N2CCCC2)NC(=O)[C@@H](C(C)C)NC(=O)[C@H](C(C)C)NC(=O)[C@H](CC(C)C)NC(=O)[C@@H](CC(C)C)NC(=O)[C@H](CC(C)C)NC1=O", "lipophilic permeability efficiency": 2.25}
{"Compound": "CC(C)C[C@@H]1NC(=O)[C@H](CCC(=O)N2CCCC2)NC(=O)[C@H](CC(C)C)NC(=O)[C@@H](CCC(=O)N2CCCC2)NC(=O)[C@H](CC(C)C)NC(=O)[C@@H](CC(C)C)NC(=O)[C@H](CC(C)C)NC1=O", "lipophilic permeability efficiency": 2.13}
{"Compound": "CC(C)C[C@@H]1NC(=O)[C@H](Cc2cscn2)NC(=O)[C@@H](CC(C)C)NC(=O)[C@H](CC(C)C)NC(=O)[C@@H](Cc2cscn2)NC(=O)[C@H](CC(C)C)NC(=O)[C@@H](CC(C)C)NC1=O", "lipophilic permeability efficiency": 1.69}
{"Compound": "CC(C)C[C@@H]1NC(=O)[C@H](Cc2cscn2)NC(=O)[C@H](CCC(=O)N2CCCC2)NC(=O)[C@H](CC(C)C)NC(=O)[C@@H](CCC(=O)N2CCCC2)NC(=O)[C@H](CC(C)C)NC(=O)[C@@H](CC(C)C)NC1=O", "lipophilic permeability efficiency": 2.15}
{"Compound": "CC(C)C[C@@H]1NC(=O)[C@@H](C)NC(=O)[C@H](CCC(=O)N2CCCC2)NC(=O)[C@@H](C(C)C)NC(=O)[C@H](C)NC(=O)[C@H](CC(C)C)NC(=O)[C@@H](CC(C)C)NC1=O", "lipophilic permeability efficiency": 1.49}
{"Compound": "CC(C)C[C@@H]1NC(=O)[C@H](C(C)C)NC(=O)[C@H](CCC(=O)N2CCCC2)NC(=O)[C@H](CC(C)C)NC(=O)[C@@H](Cc2cscn2)NC(=O)[C@H](CC(C)C)NC(=O)[C@@H](CC(C)C)NC1=O", "lipophilic permeability efficiency": 1.78}
{"note": "For quick reference, copied from above (series 1):"}
{"target": "Zinc finger protein Aiolos", "system": "HEK293", "setting": "10 µM", "remaining protein": "79.8% and 83.8%"}
{"target": "Zinc finger protein Aiolos", "system": "HEK293", "setting": "0.04115 µM, 6 h", "remaining protein": "94.5%"}
{"target": "CSNK1A1", "system": "HEK293 HiBiT-CK1α", "setting": "0.5081 nM", "remaining protein": "102% and 90.8%"}
{"target": "Zinc finger protein Aiolos", "system": "HEK293", "setting": "0.004572 µM", "remaining protein": "90.4% and 83.8%"}
